Measurements from different studies.
Compare with care: the assays were run in different laboratories. “And” joins repeats or separate records; there may be more than shown. ± gives the spread as reported. Values after ≈ are worked out from the molar mass of the structure shown.

With Cc1c(C(=O)NC2CCC(C(F)(F)F)CC2)c(COc2cccc(OC(F)(F)F)c2)nn1CC(F)(F)F (stereo not shown) the viability reduction was 0% (Schistosoma mansoni; microscopic viability scoring; newly transformed schistosomula; 10 µM, 72 h, prescreen).
CNC(=O)Oc1cccc2c1OC(C)(C)C2O (stereo not shown) has an EC10 of 4.71 µM (SH-SY5Y; neurite outgrowth, inhibitor; 24 h, nominal concentration).
Under ACTA2 upregulation, C[C@]12CC[C@H]3[C@@H](CC=C4CC(O)CC[C@@]43CO)[C@@H]1CCC2O (stereo partly shown) is recorded as “decreased” (rat BSC hepatic stellate cells; concentration not given, added: TGFβ).
With OC(Cn1cncn1)(Cn1cncn1)c1ccc(F)cc1F the OD600 was 0.969 and 0.989 and 0.965 (Saccharomyces cerevisiae; cell growth; Pdr5 deleted, Cdr1 overexpressed; 2^3.322 µg/mL).
For CCCCC1(CCCC)CN(c2ccccc2)c2cc(SC)c(OCC(=O)N[C@@H](C(=O)NCC(=O)O)c3ccccc3)cc2S(=O)(=O)C1, the serum HDL-C was 48.3 mg/dL (measured: HDL cholesterol; human, serum; 5 mg once daily, day 13).
Under “log2 fold change”, CC[C@H](C)[C@@H]1NC(=O)[C@@H]2CCCN2C(=O)[C@H](CC(C)C)NC(=O)[C@H](CC(C)C)NC(=O)CNC(=O)[C@@H](NC(=O)[C@@H](NC(=O)[C@H](CC(=O)O)NC(=O)CNC(=O)[C@@H](NC(=O)[C@H](C)NC(=O)CNC(=O)[C@H](CCCCN)NC(=O)[C@H](CC(C)C)NC(=O)[C@H](CC(C)C)NC(=O)[C@H](CCCCN)NC(=O)CNC(=O)[C@@H](NC(=O)[C@@H](N)CC(C)C)C(C)C)C(C)C)C(C)C)CSSC[C@@H](C(=O)O)NC1=O is recorded as -1.66 (RNA-seq, measured: Dok3; mouse, traumatic brain injury model, frontal cortex and hippocampus; dose not given; baseline: TBI alone).
For C[C@H](CCCC(C)(C)O)[C@H]1CC[C@H]2[C@@H]3CC=C4C[C@@H](O)CC[C@]4(C)[C@H]3CC[C@]12C, the potentiation was 9.9 ± 3.9% (NMDA receptor (rat); NMDA-evoked peak current, potentiator, whole-cell patch clamp; cultured hippocampal neurons; 0.1 µM, added: NMDA 10 µM).
The LC50 of COc1cc(CCC[P+](c2ccccc2)(c2ccccc2)c2ccccc2)c(OC)c2c1OCO2.[I-] is reported as over -4 log M (RPMI-8226; SRB).
CC(C)(C)n1nnnc1C(c1ccccc1)N1CCCc2ccccc21 (stereo not shown) gave a viability reduction of 0% (Schistosoma mansoni; microscopic viability scoring; newly transformed schistosomula; 10 µM, 72 h, prescreen).
Nc1ncnc2c([C@@H]3N[C@H](CO)[C@@H](O)[C@H]3O)c[nH]c12 has an inhibition of 30.3% (Rhinovirus A; viral replication; HRV2 HGP; 0.9 µM).
With COc1c(CCC[P+](c2ccccc2)(c2ccccc2)c2ccccc2)cc2c(c1OC)OCO2.[I-] the TGI was -5.34 log M (NCI-H460; SRB).
For CCCCCn1cc(C(=O)C2C(C)(C)C2(C)C)c2ccccc21, the ED50 was 2.6 µmol/kg (antinociception, tail withdrawal warm water; ICR mouse male; intravenous).
With Clc1ccc(-c2cc(Cl)ccc2Cl)cc1 the IC50 was 21 µM (gap junction, rat; gap junctional communication, scrape loading dye transfer; WB-F344 rat liver epithelial; 1 h).
With CC(C)(C)OC(=O)CCC1(C(F)(F)F)N=C(c2ccc(O)cc2)C(=O)O1 (stereo not shown) the viability reduction was 20% (Schistosoma mansoni; microscopic viability scoring; newly transformed schistosomula; 10 µM, 72 h, prescreen).
Cc1c2c(nn1C)CSCc1cc(n(C)n1)CSc1cc(c3ccccc3c1)OCCCc1c(C(=O)O)n(C)c3c-2c(Cl)ccc13 — result for “protein level fold change”: 14.3 (Staphylococcus aureus; label-free proteomics, measured: rpmC; SA113; concentration not given; baseline: untreated).
CN1CCN(S(=O)(=O)c2cc([N+](=O)[O-])ccc2N(CCOS(C)(=O)=O)CCOS(C)(=O)=O)CC1: “EFS delay (T-C)” 23.9 days (NSG mice, sample BB PDX; intraperitoneal, 25 mg/kg weekly x3; baseline: vehicle).
CC[C@H](C)[C@H](NC(=O)[C@H](C)NC(=O)[C@H](CCCCN)NC(=O)[C@H](CC(C)C)NC(=O)[C@H](C)NC(=O)[C@@H](NC(=O)[C@H](Cc1c[nH]cn1)NC(=O)[C@H](CC(C)C)NC(=O)[C@@H](NC(=O)[C@@H](NC(=O)[C@H](CCCCN)NC(=O)[C@H](C)NC(=O)[C@H](C)NC(=O)[C@H](CO)NC(=O)[C@H](CCCCN)NC(=O)[C@H](Cc1ccccc1)NC(=O)[C@@H](NC(=O)[C@H](CCCCN)NC(=O)[C@H](CC(C)C)NC(=O)[C@H](Cc1ccccc1)NC(=O)[C@H](CO)NC(=O)[C@H](CCCCN)NC(=O)[C@H](Cc1c[nH]c2ccccc12)NC(=O)[C@H](CCCCN)NC(C)=O)[C@@H](C)O)[C@@H](C)O)C(C)C)[C@@H](C)O)C(=O)N[C@@H](CO)C(=O)N[C@@H](CO)C(N)=O has an MBC90 of 32 µg/mL (≈ 10.9 µM) (Klebsiella pneumoniae; 40 strains).
COc1ccc(-n2nc(C(C)=O)s/c2=N\N=C(/C)c2ccc(NC(C)=O)cc2)cc1 has a toxicity of 19.8% (WI-38; 0.078 µM).
With Fc1ccc(F)c(-c2ccc3ncccc3c2)c1 the viability reduction was 18.8% (Schistosoma mansoni; microscopic viability scoring; newly transformed schistosomula; 10 µM, 72 h, prescreen).
Under “LS mean difference vs placebo”, CS(=O)(=O)CCCn1c(Cn2c(=O)n(CC(F)(F)F)c3ccncc32)cc2cc(Cl)ccc21 is recorded as 1.26 log10 copies/mL (respiratory syncytial virus; RT-qPCR; hospitalized infants 1-24 months, nasal swab; oral, 9, 6 or 5 mg/kg daily, day 6, high dose by age cohort; baseline: placebo).
The fold enrichment of Nc1ncnc2c1ncn2[C@@H]1O[C@@H]2COP(=O)(O)O[C@H]3[C@@H](O)[C@H](n4cnc5c(=O)[nH]cnc54)O[C@@H]3COP(=O)(O)O[C@H]2[C@H]1O is reported as 7.19 (West Nile virus; RNA sequencing, measured: non-integrin membrane-ECM interactions R-HSA-3000171; HFF-1 cells; concentration not given, downregulated pathway; baseline: WNV-infected untreated cells).
C[C@@H]1C[C@@]2(N=CCS2)[C@]2(O)O[C@@H]3C[C@@]4(C=O)[C@@H](CC[C@@H]5[C@@H]4CC[C@]4(C)[C@@H](C6=CC(=O)OC6)CC[C@]54O)C[C@H]3O[C@@H]2O1 has a viability effect of 96% (Schistosoma mansoni; microscopic viability score; adult worms; 1 µM, 24 h).
